Experimental data of several laboratories.
Every numbered part comes from another study and shows a few of its results, in no order.
Sequence of UniProt Q8NEV4 (whole entry, looked up): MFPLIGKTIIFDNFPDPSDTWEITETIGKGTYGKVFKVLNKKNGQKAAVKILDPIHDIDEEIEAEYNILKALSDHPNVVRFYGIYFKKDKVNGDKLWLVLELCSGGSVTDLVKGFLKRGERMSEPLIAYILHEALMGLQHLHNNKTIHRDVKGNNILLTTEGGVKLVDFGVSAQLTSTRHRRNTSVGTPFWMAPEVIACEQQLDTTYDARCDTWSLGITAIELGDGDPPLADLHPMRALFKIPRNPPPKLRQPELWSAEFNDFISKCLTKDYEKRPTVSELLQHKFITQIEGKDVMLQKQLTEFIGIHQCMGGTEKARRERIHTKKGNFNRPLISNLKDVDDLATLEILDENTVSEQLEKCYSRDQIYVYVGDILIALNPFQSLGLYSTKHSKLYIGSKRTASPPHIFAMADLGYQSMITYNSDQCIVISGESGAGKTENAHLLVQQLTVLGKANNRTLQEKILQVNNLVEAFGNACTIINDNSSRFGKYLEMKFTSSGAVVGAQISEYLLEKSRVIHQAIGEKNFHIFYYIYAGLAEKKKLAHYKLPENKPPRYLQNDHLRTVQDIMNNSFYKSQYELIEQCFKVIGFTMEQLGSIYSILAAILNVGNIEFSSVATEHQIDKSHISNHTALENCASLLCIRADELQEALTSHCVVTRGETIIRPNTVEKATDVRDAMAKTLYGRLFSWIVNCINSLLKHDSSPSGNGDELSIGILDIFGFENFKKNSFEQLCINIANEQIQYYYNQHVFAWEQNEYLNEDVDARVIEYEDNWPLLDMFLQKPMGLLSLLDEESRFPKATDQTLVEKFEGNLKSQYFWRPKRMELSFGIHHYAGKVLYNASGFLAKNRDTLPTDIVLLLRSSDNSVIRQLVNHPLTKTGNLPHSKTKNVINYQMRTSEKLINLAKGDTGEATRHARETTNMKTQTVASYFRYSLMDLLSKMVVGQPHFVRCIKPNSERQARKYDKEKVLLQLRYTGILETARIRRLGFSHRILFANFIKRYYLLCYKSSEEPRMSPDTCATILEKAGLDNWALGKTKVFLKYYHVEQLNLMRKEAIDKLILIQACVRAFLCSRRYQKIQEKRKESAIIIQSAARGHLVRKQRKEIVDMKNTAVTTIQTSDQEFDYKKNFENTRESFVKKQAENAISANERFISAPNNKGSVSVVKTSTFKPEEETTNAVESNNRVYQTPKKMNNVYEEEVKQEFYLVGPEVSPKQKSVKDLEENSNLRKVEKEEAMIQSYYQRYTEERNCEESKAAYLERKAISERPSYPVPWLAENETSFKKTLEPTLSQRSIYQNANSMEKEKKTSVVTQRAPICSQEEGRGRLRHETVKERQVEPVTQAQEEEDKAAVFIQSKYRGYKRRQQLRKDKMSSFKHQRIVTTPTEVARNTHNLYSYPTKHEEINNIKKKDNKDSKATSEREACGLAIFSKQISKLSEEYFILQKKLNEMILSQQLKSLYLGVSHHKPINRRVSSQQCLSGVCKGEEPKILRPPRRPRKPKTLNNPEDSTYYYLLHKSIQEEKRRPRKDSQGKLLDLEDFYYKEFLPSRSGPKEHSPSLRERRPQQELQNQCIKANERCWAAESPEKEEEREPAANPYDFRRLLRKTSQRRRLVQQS
Sequence of UniProt Q15303 (whole entry, looked up): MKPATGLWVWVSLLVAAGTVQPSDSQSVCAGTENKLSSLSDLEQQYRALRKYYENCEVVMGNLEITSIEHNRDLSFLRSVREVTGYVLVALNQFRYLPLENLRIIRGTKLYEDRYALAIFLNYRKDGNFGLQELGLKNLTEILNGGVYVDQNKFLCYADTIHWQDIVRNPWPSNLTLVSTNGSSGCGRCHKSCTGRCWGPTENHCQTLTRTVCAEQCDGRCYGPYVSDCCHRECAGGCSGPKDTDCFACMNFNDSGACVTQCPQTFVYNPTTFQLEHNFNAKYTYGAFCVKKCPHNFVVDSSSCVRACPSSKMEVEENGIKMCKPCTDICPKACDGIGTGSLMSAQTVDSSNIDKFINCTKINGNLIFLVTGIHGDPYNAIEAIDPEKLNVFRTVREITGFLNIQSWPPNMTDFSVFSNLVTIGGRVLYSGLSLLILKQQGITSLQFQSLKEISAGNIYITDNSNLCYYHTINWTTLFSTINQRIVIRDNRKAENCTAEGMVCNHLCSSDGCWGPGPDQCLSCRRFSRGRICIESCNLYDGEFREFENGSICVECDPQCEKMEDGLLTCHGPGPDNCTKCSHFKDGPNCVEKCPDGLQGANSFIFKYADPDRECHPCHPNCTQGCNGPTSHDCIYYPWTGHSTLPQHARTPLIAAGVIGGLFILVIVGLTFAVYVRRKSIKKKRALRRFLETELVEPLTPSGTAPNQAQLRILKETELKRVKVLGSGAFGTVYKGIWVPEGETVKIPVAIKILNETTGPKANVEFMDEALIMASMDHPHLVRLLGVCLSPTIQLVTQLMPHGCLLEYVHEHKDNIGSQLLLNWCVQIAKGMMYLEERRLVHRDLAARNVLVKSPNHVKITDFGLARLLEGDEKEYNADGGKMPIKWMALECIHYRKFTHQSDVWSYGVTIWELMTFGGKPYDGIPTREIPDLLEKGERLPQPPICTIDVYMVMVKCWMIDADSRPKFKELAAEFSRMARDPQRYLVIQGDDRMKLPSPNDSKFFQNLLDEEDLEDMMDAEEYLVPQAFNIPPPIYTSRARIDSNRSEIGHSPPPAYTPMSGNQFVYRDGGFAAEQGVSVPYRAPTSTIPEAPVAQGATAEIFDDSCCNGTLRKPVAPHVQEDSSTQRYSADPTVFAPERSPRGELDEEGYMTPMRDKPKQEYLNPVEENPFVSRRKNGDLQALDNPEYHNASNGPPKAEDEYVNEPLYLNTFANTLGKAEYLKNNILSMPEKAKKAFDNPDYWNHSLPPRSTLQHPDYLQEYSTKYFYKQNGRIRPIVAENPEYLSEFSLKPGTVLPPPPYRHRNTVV
Sequence of UniProt Q9BUB5 (whole entry, looked up): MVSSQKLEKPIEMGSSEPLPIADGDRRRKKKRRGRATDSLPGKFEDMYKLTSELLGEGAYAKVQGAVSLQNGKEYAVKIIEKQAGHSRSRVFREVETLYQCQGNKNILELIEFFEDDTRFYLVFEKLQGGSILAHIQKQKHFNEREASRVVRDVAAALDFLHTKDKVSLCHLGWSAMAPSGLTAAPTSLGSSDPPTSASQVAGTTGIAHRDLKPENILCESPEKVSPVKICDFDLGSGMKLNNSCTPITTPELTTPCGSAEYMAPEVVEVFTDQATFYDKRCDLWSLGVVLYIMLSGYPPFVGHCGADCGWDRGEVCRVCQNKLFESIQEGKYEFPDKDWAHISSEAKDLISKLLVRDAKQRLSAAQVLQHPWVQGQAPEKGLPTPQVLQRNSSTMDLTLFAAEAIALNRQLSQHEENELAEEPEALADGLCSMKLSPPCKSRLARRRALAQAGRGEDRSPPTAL
Sequence of UniProt P27037 (whole entry, looked up): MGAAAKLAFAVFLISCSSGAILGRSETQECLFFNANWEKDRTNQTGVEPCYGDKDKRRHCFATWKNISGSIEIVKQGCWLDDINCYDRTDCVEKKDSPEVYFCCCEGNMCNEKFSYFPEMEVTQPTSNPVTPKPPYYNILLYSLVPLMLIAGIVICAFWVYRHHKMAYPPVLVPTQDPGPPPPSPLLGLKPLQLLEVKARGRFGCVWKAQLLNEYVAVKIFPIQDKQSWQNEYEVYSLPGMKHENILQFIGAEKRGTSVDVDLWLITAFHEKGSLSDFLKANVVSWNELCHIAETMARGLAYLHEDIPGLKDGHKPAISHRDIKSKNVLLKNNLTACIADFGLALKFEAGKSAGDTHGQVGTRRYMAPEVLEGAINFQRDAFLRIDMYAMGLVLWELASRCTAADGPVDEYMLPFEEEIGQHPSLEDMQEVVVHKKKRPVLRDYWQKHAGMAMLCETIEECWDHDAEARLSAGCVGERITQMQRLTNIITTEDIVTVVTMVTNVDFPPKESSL

Sample 1
Target: Ephrin type-A receptor 1 (EPHA1, Homo sapiens, UniProt P21709)
Sequence of UniProt P21709 (whole entry, looked up): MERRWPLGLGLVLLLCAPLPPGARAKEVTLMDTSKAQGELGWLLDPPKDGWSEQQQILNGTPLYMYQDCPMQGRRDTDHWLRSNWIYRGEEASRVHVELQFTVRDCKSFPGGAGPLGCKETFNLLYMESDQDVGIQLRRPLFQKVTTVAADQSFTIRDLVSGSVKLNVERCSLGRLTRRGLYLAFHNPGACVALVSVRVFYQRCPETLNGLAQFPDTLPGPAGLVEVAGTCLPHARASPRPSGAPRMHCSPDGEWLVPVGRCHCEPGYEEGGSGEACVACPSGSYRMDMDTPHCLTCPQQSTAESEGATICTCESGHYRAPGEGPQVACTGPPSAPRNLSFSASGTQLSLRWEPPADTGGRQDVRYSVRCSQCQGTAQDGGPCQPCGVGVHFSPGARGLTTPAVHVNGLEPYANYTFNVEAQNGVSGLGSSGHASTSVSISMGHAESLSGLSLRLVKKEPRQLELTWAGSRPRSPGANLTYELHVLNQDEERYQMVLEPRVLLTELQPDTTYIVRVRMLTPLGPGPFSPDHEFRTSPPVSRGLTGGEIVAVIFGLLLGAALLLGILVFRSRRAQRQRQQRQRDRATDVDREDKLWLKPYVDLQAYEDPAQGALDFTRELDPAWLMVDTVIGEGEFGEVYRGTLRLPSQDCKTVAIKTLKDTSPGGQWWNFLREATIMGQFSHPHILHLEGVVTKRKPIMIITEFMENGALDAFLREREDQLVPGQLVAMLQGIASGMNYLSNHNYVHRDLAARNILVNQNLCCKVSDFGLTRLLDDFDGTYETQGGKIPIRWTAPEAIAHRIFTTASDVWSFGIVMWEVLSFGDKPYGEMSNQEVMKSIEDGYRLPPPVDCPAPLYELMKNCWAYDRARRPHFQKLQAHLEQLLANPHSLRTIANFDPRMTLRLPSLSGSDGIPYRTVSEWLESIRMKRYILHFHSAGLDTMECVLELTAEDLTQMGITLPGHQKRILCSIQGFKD
Read-out: enzyme activity
Mode: inhibitor
Concentration: 0.5 µM
Baseline: control
For O=c1cc(-c2cccc3c2Sc2ccccc2S3)oc(N2CCOCC2)c1, the remaining activity was 84.7%.
N#Cc1c(NC(=O)c2cccc3ccccc23)sc2c1CCCC2 has a remaining activity of 103%.
O=C1C(Cl)=C(N2C(=O)CCC2=O)C(=O)c2ccccc21 gave a remaining activity of 97.6%.
With COc1cc2c(cc1OC)-c1[nH]nc(Nc3cccc(F)c3)c1C2 the remaining activity was 102%.
For CCN(CC)CCNC(=O)c1c(C)[nH]c(/C=C2\C(=O)Nc3ccc(F)cc32)c1C, the remaining activity was 95.1%.
O=C(Nc1cccc(Nc2nccc(Nc3cccc(C(F)(F)F)c3)n2)c1)C1CC1 gave a remaining activity of 81.8%.
For O=C(NC(NC(=S)Nc1ccc(F)c([N+](=O)[O-])c1)C(Cl)(Cl)Cl)C(c1ccccc1)c1ccccc1 (centres unmarked), the remaining activity was 88.1%.
For c1ccc(-c2[nH]ncc2-c2ccnc3ccccc23)nc1, the remaining activity was 97.7%.
O=C1c2ccccc2-c2n[nH]c3cccc1c23 gave a remaining activity of 77.8%.
With N#C/C(=C\c1ccc(O)c(O)c1)C(=O)NCc1ccccc1 the remaining activity was 99.4%.
c1ccc(-c2cnc(Nc3ccc(OCCN4CCCC4)cc3)s2)cc1 gave a remaining activity of 85.3%.
With COc1cc2ncnc(Nc3cccc(Cl)c3)c2cc1OC the remaining activity was 81.7%.

Sample 2
SMILES: COc1cc(C(=O)N2CCC(N3CCN(C)CC3)CC2)ccc1Nc1ncc2c(n1)N(C)c1ccccc1C(=O)N2C
Method: KINOMEscan
Concentration: 10 µM
Baseline: DMSO control
Reading: lower = stronger binding
The binding was 100% (RAF1).
For RIPK5: binding read 16%.
For MEK5: binding read 85%.
TGFBR2 — binding: 100%.
It gave 83% for binding (MEK6).
It gave 83% for binding (IRAK4).
FLT1 — binding: 100%.
BMPR1A — binding: 100%.

Sample 3
SMILES: CC1=C(C#N)[C@@H](c2ccc3[nH]nc(C)c3c2)C(C#N)=C(c2ccc(Cl)cc2)N1
Method: competition with immobilised ligand
Concentration: 1 µM
CDK15 (Homo sapiens, UniProt Q96Q40); cell-free assay — remaining binding: 75.4%.
For Tyrosine-protein kinase ABL1, phosphorylated (ABL1, Homo sapiens, UniProt P00519); cell-free assay: remaining binding read 82.9%.
It gave 100% for remaining binding (EPHA1 (Homo sapiens, UniProt P21709); cell-free assay).
For ERBB4 (Homo sapiens, UniProt Q15303); cell-free assay: remaining binding read 100%.
EPHB2 (Homo sapiens, UniProt P29323); cell-free assay — remaining binding: 100%.
INSRR (Homo sapiens, UniProt P14616); cell-free assay — remaining binding: 100%.
The remaining binding was 90% (CDK11A (Homo sapiens, UniProt Q9UQ88); binding).
For RET (Homo sapiens, UniProt P07949, M918T); cell-free assay: remaining binding read 97.2%.
For ACVR2A (Homo sapiens, UniProt P27037); cell-free assay: remaining binding read 100%.
It gave 100% for remaining binding (MKNK1 (Homo sapiens, UniProt Q9BUB5); cell-free assay).
CAMK2B (Homo sapiens, UniProt Q13554); cell-free assay — remaining binding: 100%.
The remaining binding was 89.7% (FLT3 (Homo sapiens, UniProt P36888, D835V); cell-free assay).
The remaining binding was 100% (EGFR (Homo sapiens, UniProt P00533, L858R/T790M); cell-free assay).
The remaining binding was 100% (PIK3C3 (Homo sapiens, UniProt Q8NEB9); cell-free assay).
For Myosin-IIIa (MYO3A, Homo sapiens, UniProt Q8NEV4); binding: remaining binding read 100%.
It gave 80.4% for remaining binding (EGFR (Homo sapiens, UniProt P00533, A750P/del747-749); cell-free assay).

Sample 4
Structure (SMILES): CC(=O)N[C@@H](Cc1c[nH]c2ccccc12)C(=O)N[C@@H](CCC(=O)C=[N+]=[N-])C(=O)OC(C)C
Dose: dose not given
Baseline: vehicle
It gave 0.0337 for “log2 fold change” (refers to: inosine; mouse, EL4 tumour-bearing, EL4 tumour).
The “log2 fold change” was -1.33 (refers to: UDP-galactose; mouse, EL4 tumour-bearing, EL4 tumour).
The “log2 fold change” was 0.403 (refers to: 1-methyl-4-imidazoleacetate; mouse, EL4 tumour-bearing, EL4 tumour).
refers to: alpha-hydroxyisocaproate; mouse, EL4 tumour-bearing, EL4 tumour — “log2 fold change”: -0.104.
It gave 0.12 for “log2 fold change” (refers to: galacturonate 1-phosphate; mouse, EL4 tumour-bearing, EL4 tumour).
The “log2 fold change” was -0.281 (refers to: N1-Methyl-2-pyridone-5-carboxamide; mouse, EL4 tumour-bearing, EL4 tumour).
refers to: fructose 1,6-bisphosphate; mouse, EL4 tumour, tumour — “log2 fold change”: 0.676.
The “log2 fold change” was 2.58 (refers to: methylsuccinate; mouse, EL4 tumour-bearing, EL4 tumour).

A few entries again (sample 2):
For MEK5: binding read 85%.
TGFBR2 — binding: 100%.
It gave 83% for binding (MEK6).
